{"data": "Published values collected from several papers", "note": "± marks the error that the study gave.", "UniProt Q9Y6L6, sequence (whole entry, looked up)": "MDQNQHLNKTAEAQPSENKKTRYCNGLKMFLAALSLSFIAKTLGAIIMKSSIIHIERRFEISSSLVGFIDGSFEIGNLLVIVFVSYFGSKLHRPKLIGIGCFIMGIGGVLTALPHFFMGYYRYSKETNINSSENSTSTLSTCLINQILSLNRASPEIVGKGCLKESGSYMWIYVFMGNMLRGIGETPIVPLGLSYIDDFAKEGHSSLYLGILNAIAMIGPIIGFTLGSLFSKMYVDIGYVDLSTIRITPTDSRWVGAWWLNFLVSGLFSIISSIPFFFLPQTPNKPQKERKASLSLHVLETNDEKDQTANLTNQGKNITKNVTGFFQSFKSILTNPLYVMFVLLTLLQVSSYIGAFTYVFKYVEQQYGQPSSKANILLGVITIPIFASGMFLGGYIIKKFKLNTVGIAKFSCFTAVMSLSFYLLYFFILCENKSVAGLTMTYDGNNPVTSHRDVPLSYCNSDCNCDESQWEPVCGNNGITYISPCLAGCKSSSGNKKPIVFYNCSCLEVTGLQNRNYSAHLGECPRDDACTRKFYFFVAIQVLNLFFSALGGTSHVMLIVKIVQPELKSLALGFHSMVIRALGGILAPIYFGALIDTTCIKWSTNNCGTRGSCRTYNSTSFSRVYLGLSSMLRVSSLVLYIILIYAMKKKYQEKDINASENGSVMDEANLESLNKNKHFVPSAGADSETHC"}
{"SMILES": "COc1cc(C(=O)NCCOCCOCCOCCNC(=O)c2ccc([18F])nc2)ccc1NC(=O)C1NC(CC(C)(C)C)C(C#N)(c2ccc(Cl)cc2F)C1c1cccc(Cl)c1F (centres unmarked)", "target or system": "HepG2 tumour model", "test system": "host not given, spleen", "conditions": "4 h, tumour-bearing", "quantity": "tracer uptake", "result": "0.31 %ID/g"}
{"SMILES": "O=C(O)CCC(NP(=O)(O)OCCC[C@@H](NC(=O)CCC(NC(=O)CCCCCNC(=O)c1ccc([18F])cc1)C(=O)O)C(=O)O)C(=O)O (some centres unmarked)", "target or system": "PC-3 tumour model", "test system": "host not given, muscle", "conditions": "intravenous, 2 h, tumour-bearing", "quantity": "tracer uptake", "result": "0.06 %ID/g"}
{"SMILES": "O=C(O)CCCC1C2CCCN3CCCC(CN1S(=O)(=O)c1ccc(Cl)cc1)C23 (centres unmarked)", "target or system": "HEK293T", "quantity": "CC50", "result": "200 µM"}
{"SMILES": "Cc1nc(=O)c2cc(CN(C)c3ccc(C(=O)NCc4cccc(C(=O)O)c4)s3)ccc2[nH]1", "target or system": "Mycobacterium tuberculosis", "test system": "H37Rv", "conditions": "10 µM, 24 h", "quantity": "metabolized share of uptake", "result": "86%"}
{"SMILES": "CN[C@](C)(C[18F])C(=O)O", "target or system": "A549 tumour model", "test system": "host not given, blood", "conditions": "1 h, tumour-bearing", "quantity": "tracer uptake", "result": "0.8 %ID/g"}
{"SMILES": "COc1ccc(CNc2nc(N3CCC[C@H]3CO)ncc2C(=O)NNC(=O)c2cnc(N3CCC[C@H]3CO)nc2NCc2ccc(OC)c(Cl)c2)cc1Cl", "target or system": "Salmonella typhimurium", "test system": "TA1535", "conditions": "125 µg/plate, 48 h, added: rat liver S9", "quantity": "revertant count", "result": "35 ± 5"}
{"SMILES": "CC(CCC(=O)NCC(=O)O)C1CCC2C3CCC4CC(OC5OC(C(=O)O)C(O)C(O)C5O)CCC4(C)C3CC(O)C12C (centres unmarked)", "target or system": "Solute carrier organic anion transporter family member 1B1 (SLCO1B1, Homo sapiens, UniProt Q9Y6L6)", "test": "substrate", "how to read": "reference: OATP1B1 over OATP1B3 or OATP2B1", "quantity": "uptake ratio", "result": "≥ 6"}
{"SMILES": "NC(=O)c1ccc[n+](-c2ccccc2)c1", "target or system": "CRFK", "test": "cell growth or viability, ATP luminescence", "conditions": "72 h", "quantity": "CC50", "result": "60.5 µM"}
{"SMILES": "C[C@@](O)(C(F)F)[C@H](NC(=O)c1ccc(C#CC#CC2CC2)cc1)C(=O)NO", "test system": "dog, plasma", "conditions": "intravenous, 10 mg/kg", "quantity": "clearance", "result": "32 mL/min/kg"}
{"SMILES": "O=C(O)CCC(NP(=O)(O)OCCC[C@@H](NC(=O)CCC(NC(=O)CCCCCNC(=O)CCCCCNC(=O)c1ccc([18F])cc1)C(=O)O)C(=O)O)C(=O)O (some centres unmarked)", "target or system": "PC-3 tumour model", "test system": "host not given, blood", "conditions": "intravenous, 2 h, tumour-bearing", "quantity": "tracer uptake", "result": "0.02 %ID/g"}
{"SMILES": "CCC(=O)N(C)c1ccc(Cl)c(Cl)c1", "target or system": "Salmonella typhimurium", "test": "Ames test", "test system": "TA1535", "conditions": "1.00 mg/plate, without S9 activation", "quantity": "revertants", "result": "13 ± 2.5 revertants/plate"}
{"SMILES": "O=C(O)CCC(NP(=O)(O)OCCC[C@@H](NC(=O)CCC(NC(=O)c1ccc([18F])cc1)C(=O)O)C(=O)O)C(=O)O (some centres unmarked)", "target or system": "PC-3 tumour model", "test system": "host not given, liver", "conditions": "intravenous, 2 h, tumour-bearing", "quantity": "tracer uptake", "result": "0.44 %ID/g"}
{"SMILES": "CC[C@H](C)C(=O)N1CCC(NC(=O)Nc2ccc(OC(F)(F)F)c(F)c2)CC1", "test system": "healthy volunteers", "conditions": "oral, 2 mg single dose, device site dermatitis", "quantity": "subjects with dermatitis TEAE", "result": "33.3%"}
{"SMILES": "CN(C)CC1CCCCC1(O)c1cccc(O)c1 (centres unmarked)", "test system": "Caco-2", "conditions": "100 µM, 3 h, pH 6.8", "quantity": "Papp B→A", "result": "15.2 ×10⁻⁶ cm/s"}
{"note": "Repeated from above:"}
{"SMILES": "CN(C)CC1CCCCC1(O)c1cccc(O)c1 (centres unmarked)", "test system": "Caco-2", "conditions": "100 µM, 3 h, pH 6.8", "quantity": "Papp B→A", "result": "15.2 ×10⁻⁶ cm/s"}
